Measured values collected from several papers.
Lines come from different studies, so protocols differ. ± marks the error that the study gave.
DRD4: D(4) dopamine receptor (DRD4, Homo sapiens, UniProt P21917)
Sequence of UniProt P21917 (whole entry, looked up): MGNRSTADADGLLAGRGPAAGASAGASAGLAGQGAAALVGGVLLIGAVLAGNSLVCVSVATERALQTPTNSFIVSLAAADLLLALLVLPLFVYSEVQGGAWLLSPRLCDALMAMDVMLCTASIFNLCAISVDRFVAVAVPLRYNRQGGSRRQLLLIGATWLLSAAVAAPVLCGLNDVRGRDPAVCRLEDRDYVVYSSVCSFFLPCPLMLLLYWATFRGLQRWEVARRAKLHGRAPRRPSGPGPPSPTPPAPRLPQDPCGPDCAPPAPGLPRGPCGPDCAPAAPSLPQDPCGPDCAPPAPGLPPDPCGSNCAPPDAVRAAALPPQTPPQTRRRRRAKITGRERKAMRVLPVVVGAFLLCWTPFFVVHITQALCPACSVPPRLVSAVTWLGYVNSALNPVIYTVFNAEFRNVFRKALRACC
HTR1D: 5-hydroxytryptamine receptor 1D (HTR1D, Homo sapiens, UniProt P28221)
Sequence of UniProt P28221 (whole entry, looked up): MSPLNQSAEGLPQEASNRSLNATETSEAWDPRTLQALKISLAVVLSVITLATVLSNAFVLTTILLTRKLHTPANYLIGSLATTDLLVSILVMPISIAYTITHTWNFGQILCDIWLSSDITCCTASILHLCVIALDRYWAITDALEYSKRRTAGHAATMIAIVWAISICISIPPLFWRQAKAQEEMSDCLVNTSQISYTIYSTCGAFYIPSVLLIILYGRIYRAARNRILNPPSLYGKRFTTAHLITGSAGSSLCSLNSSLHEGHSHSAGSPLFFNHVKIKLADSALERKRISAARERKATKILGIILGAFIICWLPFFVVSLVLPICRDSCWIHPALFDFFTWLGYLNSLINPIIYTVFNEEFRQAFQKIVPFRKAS
Sequence of UniProt P02716 (whole entry, looked up): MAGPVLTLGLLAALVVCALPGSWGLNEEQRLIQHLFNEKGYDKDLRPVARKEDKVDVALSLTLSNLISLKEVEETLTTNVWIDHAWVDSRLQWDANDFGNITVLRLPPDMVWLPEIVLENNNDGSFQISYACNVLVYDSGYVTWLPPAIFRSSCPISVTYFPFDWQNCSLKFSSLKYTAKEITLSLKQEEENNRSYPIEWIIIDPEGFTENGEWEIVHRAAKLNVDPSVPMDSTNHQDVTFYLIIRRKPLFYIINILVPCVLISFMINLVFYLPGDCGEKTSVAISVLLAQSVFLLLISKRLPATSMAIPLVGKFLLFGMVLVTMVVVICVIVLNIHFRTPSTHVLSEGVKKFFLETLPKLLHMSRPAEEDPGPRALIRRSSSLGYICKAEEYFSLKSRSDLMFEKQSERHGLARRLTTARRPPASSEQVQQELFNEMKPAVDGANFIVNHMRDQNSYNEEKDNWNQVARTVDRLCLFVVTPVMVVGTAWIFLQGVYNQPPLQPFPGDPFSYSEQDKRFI
Sequence of UniProt P20782 (whole entry, looked up): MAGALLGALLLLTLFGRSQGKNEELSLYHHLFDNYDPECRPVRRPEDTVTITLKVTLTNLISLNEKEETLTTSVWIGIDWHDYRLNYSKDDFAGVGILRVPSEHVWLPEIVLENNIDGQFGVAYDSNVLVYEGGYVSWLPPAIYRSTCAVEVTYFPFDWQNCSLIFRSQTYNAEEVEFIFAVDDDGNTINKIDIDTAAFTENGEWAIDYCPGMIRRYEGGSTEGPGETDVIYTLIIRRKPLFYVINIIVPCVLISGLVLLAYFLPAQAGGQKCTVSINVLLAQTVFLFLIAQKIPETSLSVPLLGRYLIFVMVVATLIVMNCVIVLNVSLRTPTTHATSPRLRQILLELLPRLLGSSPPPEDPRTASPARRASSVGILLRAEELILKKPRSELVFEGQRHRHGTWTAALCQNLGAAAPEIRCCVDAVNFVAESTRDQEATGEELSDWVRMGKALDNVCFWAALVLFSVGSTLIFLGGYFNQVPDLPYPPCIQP
Sequence of UniProt P28335 (whole entry, looked up): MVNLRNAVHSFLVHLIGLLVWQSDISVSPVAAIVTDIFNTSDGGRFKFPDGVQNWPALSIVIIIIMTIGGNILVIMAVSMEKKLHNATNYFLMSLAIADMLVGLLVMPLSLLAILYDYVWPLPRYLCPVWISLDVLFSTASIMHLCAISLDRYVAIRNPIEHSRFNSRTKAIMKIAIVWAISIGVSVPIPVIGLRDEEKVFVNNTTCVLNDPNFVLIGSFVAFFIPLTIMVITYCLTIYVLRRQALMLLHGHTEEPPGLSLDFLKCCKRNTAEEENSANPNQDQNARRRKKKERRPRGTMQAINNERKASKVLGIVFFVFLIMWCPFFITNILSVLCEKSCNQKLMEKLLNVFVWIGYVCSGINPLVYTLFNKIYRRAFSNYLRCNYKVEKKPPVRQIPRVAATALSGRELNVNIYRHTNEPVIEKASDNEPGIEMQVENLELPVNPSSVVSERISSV
Sequence of UniProt Q969R2 (whole entry, looked up): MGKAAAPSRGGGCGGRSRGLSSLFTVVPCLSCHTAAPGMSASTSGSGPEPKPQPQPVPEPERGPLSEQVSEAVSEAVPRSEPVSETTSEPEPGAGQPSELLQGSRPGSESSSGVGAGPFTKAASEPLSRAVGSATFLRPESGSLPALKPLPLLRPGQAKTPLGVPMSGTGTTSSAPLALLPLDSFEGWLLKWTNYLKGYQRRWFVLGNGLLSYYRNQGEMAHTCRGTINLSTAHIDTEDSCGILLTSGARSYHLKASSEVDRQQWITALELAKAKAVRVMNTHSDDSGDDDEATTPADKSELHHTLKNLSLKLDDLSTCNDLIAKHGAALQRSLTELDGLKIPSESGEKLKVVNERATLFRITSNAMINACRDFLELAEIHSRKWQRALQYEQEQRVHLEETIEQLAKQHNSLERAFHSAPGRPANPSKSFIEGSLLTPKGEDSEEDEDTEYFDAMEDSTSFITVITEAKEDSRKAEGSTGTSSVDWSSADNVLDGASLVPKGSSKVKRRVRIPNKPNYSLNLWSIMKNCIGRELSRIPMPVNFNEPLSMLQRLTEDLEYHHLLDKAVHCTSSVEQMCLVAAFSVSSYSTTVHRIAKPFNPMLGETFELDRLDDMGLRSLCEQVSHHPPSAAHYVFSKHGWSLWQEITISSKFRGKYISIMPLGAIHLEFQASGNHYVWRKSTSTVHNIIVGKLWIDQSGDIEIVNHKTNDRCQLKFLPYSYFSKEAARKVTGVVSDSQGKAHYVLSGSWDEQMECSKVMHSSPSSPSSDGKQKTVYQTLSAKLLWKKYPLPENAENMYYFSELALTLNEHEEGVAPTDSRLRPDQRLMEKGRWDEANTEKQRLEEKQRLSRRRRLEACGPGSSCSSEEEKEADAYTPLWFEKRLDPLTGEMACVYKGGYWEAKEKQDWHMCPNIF
Sequence of UniProt Q9HB89 (whole entry, looked up): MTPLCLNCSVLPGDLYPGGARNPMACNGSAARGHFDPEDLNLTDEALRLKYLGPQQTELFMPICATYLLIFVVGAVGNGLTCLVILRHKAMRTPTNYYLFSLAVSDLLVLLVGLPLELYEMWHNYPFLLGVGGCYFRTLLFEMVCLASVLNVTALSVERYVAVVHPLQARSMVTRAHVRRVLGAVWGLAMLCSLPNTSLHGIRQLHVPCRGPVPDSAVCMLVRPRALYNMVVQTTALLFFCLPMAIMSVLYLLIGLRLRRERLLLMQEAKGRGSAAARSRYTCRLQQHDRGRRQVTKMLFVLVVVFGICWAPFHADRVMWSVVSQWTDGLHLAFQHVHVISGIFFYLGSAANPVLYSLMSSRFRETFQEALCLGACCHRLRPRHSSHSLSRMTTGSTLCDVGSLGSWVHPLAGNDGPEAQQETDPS
Sequence of UniProt P04756 (whole entry, looked up): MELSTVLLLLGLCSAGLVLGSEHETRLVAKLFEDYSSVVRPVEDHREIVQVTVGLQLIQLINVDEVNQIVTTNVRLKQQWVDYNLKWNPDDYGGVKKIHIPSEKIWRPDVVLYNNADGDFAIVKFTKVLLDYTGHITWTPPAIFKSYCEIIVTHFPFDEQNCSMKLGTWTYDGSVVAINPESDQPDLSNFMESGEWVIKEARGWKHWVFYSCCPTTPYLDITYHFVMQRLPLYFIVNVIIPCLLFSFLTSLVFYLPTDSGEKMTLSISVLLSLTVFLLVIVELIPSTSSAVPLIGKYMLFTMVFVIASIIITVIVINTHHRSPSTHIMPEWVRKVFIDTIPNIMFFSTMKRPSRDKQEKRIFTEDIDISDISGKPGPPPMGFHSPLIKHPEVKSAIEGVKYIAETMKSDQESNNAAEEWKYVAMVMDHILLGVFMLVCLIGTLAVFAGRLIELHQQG
Sequence of UniProt Q13310 (whole entry, looked up): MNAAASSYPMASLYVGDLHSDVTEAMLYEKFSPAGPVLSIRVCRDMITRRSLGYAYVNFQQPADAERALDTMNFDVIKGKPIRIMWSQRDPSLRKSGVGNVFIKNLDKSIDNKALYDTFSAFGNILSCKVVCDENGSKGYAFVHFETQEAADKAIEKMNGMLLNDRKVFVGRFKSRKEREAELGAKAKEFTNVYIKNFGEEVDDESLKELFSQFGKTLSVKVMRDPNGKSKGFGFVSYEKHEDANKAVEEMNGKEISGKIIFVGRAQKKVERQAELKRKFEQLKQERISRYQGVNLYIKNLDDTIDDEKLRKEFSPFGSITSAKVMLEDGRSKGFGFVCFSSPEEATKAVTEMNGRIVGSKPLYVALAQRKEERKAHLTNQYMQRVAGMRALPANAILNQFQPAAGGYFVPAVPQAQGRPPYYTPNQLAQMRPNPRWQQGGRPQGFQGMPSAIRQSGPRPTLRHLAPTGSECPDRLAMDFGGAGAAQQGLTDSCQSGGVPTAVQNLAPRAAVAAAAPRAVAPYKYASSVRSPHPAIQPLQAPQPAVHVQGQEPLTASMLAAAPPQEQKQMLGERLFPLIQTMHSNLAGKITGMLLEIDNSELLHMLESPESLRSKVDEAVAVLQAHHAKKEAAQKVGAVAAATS

CC[C@H](C)[C@H](NC(=O)[C@H](Cc1ccccc1)NC(=O)[C@H](CCC(=O)O)NC(=O)[C@H](CCCNC(=N)N)NC(=O)[C@H](C)NC(=O)[C@H](C)NC(=O)[C@H](CCC(N)=O)NC(=O)[C@H](CCC(=O)O)NC(=O)[C@H](CCC(=O)O)NC(=O)[C@H](CC(C)C)NC(=O)[C@H](Cc1ccc(O)cc1)NC(=O)[C@H](CO)NC(=O)[C@H](CO)NC(=O)[C@@H](NC(=O)[C@H](CC(=O)O)NC(=O)[C@H](CO)NC(=O)[C@@H](NC(=O)[C@H](Cc1ccccc1)NC(=O)[C@@H](NC(=O)CNC(=O)[C@H](CCC(=O)O)NC(=O)[C@H](C)NC(=O)CCc1c[nH]cn1)[C@@H](C)O)[C@@H](C)O)C(C)C)C(=O)N[C@@H](C)C(=O)N[C@@H](Cc1c[nH]c2ccccc12)C(=O)N[C@@H](CC(C)C)C(=O)N[C@H](C(=O)N[C@@H](CCCNC(=N)N)C(=O)NCC(=O)N[C@@H](CCCNC(=N)N)C(=O)N[C@@H](CCCCNC(=O)COCCOCCNC(=O)COCCOCCNC(=O)CC[C@H](NC(=O)CCCCCCCCCCCCCCCCC(=O)O)C(=O)O)C(=O)NCC(=O)NCC(=O)N[C@@H](CO)C(=O)N[C@@H](CCCCNc1c(NCCCCCN(O)C(=O)CCC(=O)NCCCCCN(O)C(=O)CCC(=O)NCCCCCN(O)C(C)=O)c(=O)c1=O)C(=O)O)C(C)C [zirconium-89 labelled]
tissue uptake (ex vivo gamma counting; rat, intestine content; subcutaneous, 3 nmol/kg, 168 h, added: [89Zr]-labelled peptide): 0.02 %ID/g

COc1cc2c3cc1Oc1cc(ccc1O)C[C@@H]1c4c(cc(OC)c(O)c4Oc4ccc(cc4)C[C@@H]3N(C)CC2)CC[N+]1(C)C
Ki (Chrnd/Chrna1/Chrne (Mus musculus, UniProt P02716+P04756+P20782); inhibitor; mouse hemidiaphragm; two equal exclusive sites model): ~80 nM

Cc1cccc(C)c1N1C(=O)[C@H](CC2CNc3ccccc32)NC2(CCN(C)CC2)C1=O (stereo partly drawn)
Ki (DRD4; binding): > 10000 nM

COc1cc(Nc2ncc(F)c(Nc3ccc4c(n3)NC(=O)C(C)(C)O4)n2)cc(OC)c1OC
IC50 (Neuromedin-U receptor 1 (NMUR1, Homo sapiens, UniProt Q9HB89)): > 10000 nM

O[C@@H](CCCN1CCC(O)(c2ccc(Cl)cc2)CC1)c1ccc(F)cc1
Ki (DRD4): 116 ± 16.7 nM

Cc1cccc(C)c1N1C(=O)CNC2(CCN(C)CC2)C1=O
Ki (DRD4; binding): > 10000 nM

COc1cc2c(cc1OC)-c1c(OC)c(OC)cc3c1[C@H](C2)N(C)CC3
Ki (5-hydroxytryptamine receptor 2C (HTR2C, Homo sapiens, UniProt P28335); radioligand binding): 939 nM

N[C@@H](CS)C(=O)O
Ki (SclA protein (Enterococcus faecalis, UniProt Q831E3, H100D)): 620000 ± 70000 nM

CC[C@H](C)[C@@H]1NC(=O)[C@@H]2CCCN2C(=O)[C@H](CC(C)C)NC(=O)[C@H](CC(C)C)NC(=O)CNC(=O)[C@@H](NC(=O)[C@@H](NC(=O)[C@H](CC(=O)O)NC(=O)CNC(=O)[C@@H](NC(=O)[C@H](C)NC(=O)CNC(=O)[C@H](CCCCN)NC(=O)[C@H](CC(C)C)NC(=O)[C@H](CC(C)C)NC(=O)[C@H](CCCCN)NC(=O)CNC(=O)[C@@H](NC(=O)[C@@H](N)CC(C)C)C(C)C)C(C)C)C(C)C)CSSC[C@@H](C(=O)O)NC1=O
log2 fold change (RNA-seq, measured: Slc1a5; mouse, traumatic brain injury model, frontal cortex and hippocampus; dose not given; baseline: TBI alone): -1.06

COc1cc2c(cc1OC)CN(CCc1ccc(NC(=O)c3cccc4c(=O)c5cccc(OC)c5[nH]c34)cc1)CC2
Ki (HTR1D; binding): 225 nM

OC(c1ccc(F)cc1)C(F)(F)CCN1CCC(O)(c2ccc(Cl)cc2)CC1 (racemic)
Ki (DRD4): 233 ± 25 nM

C[C@H]1CN(c2n[nH]c3nc(N[C@H]4CC[C@H](NS(=O)(=O)CCC(F)(F)F)CC4)ncc23)CCO1
remaining binding (Polyadenylate-binding protein 4 (Homo sapiens, UniProt Q13310); Kinobeads competition, measured: PABPC4; 0.16 µM, unit not given; baseline: vehicle): 1.14

COc1ccc(N=Nc2ccc3[nH]cc(CCN(C)C)c3c2)cc1
Ki (HTR1D; binding, radioligand binding; ambient light): 3.51 nM

C[S+]([O-])C[C@H]1[C@H]2CC[C@@]3(CC[C@H]4[C@@](C)(CCC[C@@]4(C)C(=O)O)[C@@H]3C2)[C@@H]1O (stereo partly drawn)
Ki (Oxysterol-binding protein 2 (OSBP2, Homo sapiens, UniProt Q969R2); [3H]-25-hydroxycholesterol binding, competitive inhibitor): > 100000 nM

C[C@@H](O)[C@@H](CO)NC(=O)[C@@H](CCCNC(=N)N)NC(=O)[C@@H]1CCCN1C(=O)[C@@H]1CSSC[C@H](NC(=O)[C@H](Cc2ccccc2)NC(=O)CN2CCN(CC(=O)O)CCN(CC(=O)O)CCN(CC(=O)O)CC2)C(=O)N[C@@H](Cc2ccc(O)cc2)C(=O)N[C@@H](Cc2ccccc2)C(=O)N[C@@H](CCC(N)=O)C(=O)N[C@@H](CC(N)=O)C(=O)N1 [gallium-68 labelled]
tissue uptake (Wistar rat, healthy, urinary bladder; intravenous, 8 MBq, 30 min, mean): 4.34 %ID/g

A few entries again:
COc1cc(Nc2ncc(F)c(Nc3ccc4c(n3)NC(=O)C(C)(C)O4)n2)cc(OC)c1OC
IC50 (Neuromedin-U receptor 1 (NMUR1, Homo sapiens, UniProt Q9HB89)): > 10000 nM
